Assay results of several laboratories.
Every numbered part comes from another study and shows a few of its results, in no order. Several values in a cell are separate wells, animals, samples, runs or records.

Sample 1 — effect on: cell-free assay; technique: competition with immobilised ligand; concentration: 1 µM
SMILES: CCS(=O)(=O)c1cc2cc(C[C@](O)(CC(C)(C)c3ccc(F)cc3C(N)=O)C(F)(F)F)[nH]c2cn1
target | remaining binding [%]
Ribosomal protein S6 kinase alpha-3, C-terminal kinase domain (RPS6KA3, Homo sapiens, UniProt P51812) | 93
Tyrosine-protein kinase ITK/TSK (ITK, Homo sapiens, UniProt Q08881) | 100
Mitogen-activated protein kinase kinase kinase 15 (MAP3K15, Homo sapiens, UniProt Q6ZN16) | 97
Vascular endothelial growth factor receptor 1 (FLT1, Homo sapiens, UniProt P17948) | 81
Ephrin type-B receptor 2 (EPHB2, Homo sapiens, UniProt P29323) | 100
G protein-coupled receptor kinase 4 (GRK4, Homo sapiens, UniProt P32298) | 100
BMP-2-inducible protein kinase (BMP2K, Homo sapiens, UniProt Q9NSY1) | 83
Cyclin-dependent kinase 8 (CDK8, Homo sapiens, UniProt P49336) | 100
Phosphatidylinositol 4,5-bisphosphate 3-kinase catalytic subunit alpha isoform (PIK3CA, Homo sapiens, UniProt P42336, H1047Y) | 100
Serine/threonine-protein kinase OSR1 (OXSR1, Homo sapiens, UniProt O95747) | 90
Receptor-type tyrosine-protein kinase FLT3 (FLT3, Homo sapiens, UniProt P36888, K663Q) | 100
ALK tyrosine kinase receptor (ALK, Homo sapiens, UniProt Q9UM73, L1196M) | 87
Activin receptor type-2B (ACVR2B, Homo sapiens, UniProt Q13705) | 98
Phosphorylase b kinase gamma catalytic chain, skeletal muscle/heart isoform (PHKG1, Homo sapiens, UniProt Q16816) | 66
Serine/threonine-protein kinase Nek10 (NEK10, Homo sapiens, UniProt Q6ZWH5) | 100
Non-receptor tyrosine-protein kinase TYK2, JH2 (TYK2, Homo sapiens, UniProt P29597) | 93

Sample 2 — effect on: RNA clamping; technique: fluorescence polarization; concentration: concentration not given; notes: mean of two replicates; with: FAM-labelled poly r(AG)8 RNA
Target: Eukaryotic initiation factor 4A-III (Homo sapiens, UniProt P38919)
SMILES | fluorescence polarization change
C#CCCCOC(=O)/C=C/Cn1c(-c2ccccc2)nc2c(c1=O)[C@@H](c1ccccc1)[C@]1(c3ccc(OC)cc3)Oc3cc(OC)cc(OC)c3[C@]21O | 5.9 mP
C#CCOc1cc(OC)c2c(c1)O[C@@]1(c3ccc(OC)cc3)[C@H](c3ccccc3)c3c(nc4n(c3=O)CCC4)[C@@]21O | 11.4 mP
COc1cc(OC)c2c(c1)O[C@@]1(c3ccc(C#N)cc3)[C@H](c3ccccc3)[C@@H](CN(C)C)[C@@H](O)[C@@]21O | 46.5 mP
CCOC(=O)[C@H]1[C@@H](O)[C@@]2(O)c3c(OC)cc(OC)cc3O[C@@]2(c2ccc(OC)cc2)[C@@H]1c1ccc(Br)cc1 | 3.2 mP
COc1ccc([C@@]23Oc4cc(OC)cc(OC)c4[C@]2(OC)c2nc(-c4ccccc4)n(C)c(=O)c2[C@H]3c2ccccc2)cc1 | 1.6 mP

Sample 3 — concentration: 1 µM
Structure (SMILES): Cc1ccc(NC(=O)c2ccnc(C(F)(F)F)c2)cc1-c1cc(OCCO)nc(N2CCOCC2)c1
target | assay | setting | how to read | remaining binding [%]
Mitogen-activated protein kinase kinase kinase kinase 2 (MAP4K2, Homo sapiens, UniProt Q12851) | competitive binding panel | – | reference: vehicle | 100
Casein kinase II subunit alpha' (CSNK2A2, Homo sapiens, UniProt P19784) | competitive binding panel | – | reference: vehicle | 71
Mitogen-activated protein kinase 14 (MAPK14, Homo sapiens, UniProt Q16539) | competitive binding, scanMAX | p38-alpha, 1000 nM | – | 26
Dual specificity mitogen-activated protein kinase kinase 4 (MAP2K4, Homo sapiens, UniProt P45985) | competitive binding panel, refers to: MEK4 | – | reference: vehicle | 99
Serine/threonine-protein kinase MRCK alpha (CDC42BPA, Homo sapiens, UniProt Q5VT25) | competitive binding, scanMAX | MRCKA, 1000 nM | – | 100

Sample 4 — effect on: enzyme activity; mode: inhibitor; concentration: 77 µM; reference: untreated
Target: DNA polymerase theta, ATPase domain (POLQ, Homo sapiens, UniProt O75417)
SMILES | remaining activity
CCN=C1N[C@@H]2[C@@H](O)[C@H](O)[C@@H](CO)O[C@@H]2S1 | 101%
CCC(=O)OCC(=O)[C@@]1(OC(=O)CC)[C@@H](C)C[C@H]2[C@@H]3CCC4=CC(=O)C=C[C@]4(C)[C@@]3(Cl)[C@@H](O)C[C@@]21C | 99.6% and 101%
CC1Cc2ccccc2N1NC(=O)c1ccc(Cl)c(S(N)(=O)=O)c1 (stereo not shown) | 100% and 102%
CC(=C(CCO)SSCC1CCCO1)N(C=O)Cc1cnc(C)nc1N (stereo in doubt) | 102%

Sample 5 — species: human; sample: microsomes or S9; concentration: 2 µM; time: 0.5 h
SMILES | remaining compound
c1ccc(-c2csc3nc(-c4cccnc4)nc(Oc4ccc5ccncc5c4)c23)cc1 | 59.4%
CC(C)c1csc2nc(-c3cn(C)c(=O)[nH]c3=O)[nH]c(=O)c12 | 34.2%
O=C(NCC1=COCCO1)NC1CCc2c1ccc(Cl)c2Cl (stereo not shown) | 27.3%
NC1CCN(c2nc3c(cc2F)c(=O)c(C(=O)O)cn3-c2ccc(F)cn2)C1 (stereo not shown) | 88.5%
